Published values pooled from the literature.
Numbered parts are unrelated; each lists some results of a single study. Positions count from the first letter of the parent shown.

Set 1 — technique: DNA-protein interaction ELISA; form: double-stranded DNA, one strand shown; sample: in vitro, bacterial lysate; concentration: not given; notes: whole dsDNA probe, crude lysate protein; relative to: highest signal in screen; direction: higher = stronger binding
Target: Probable WRKY transcription factor 11, DNA-binding domain (WRKY11, Arabidopsis thaliana, UniProt Q9SV15, residues 228-325)
Target sequence (chain): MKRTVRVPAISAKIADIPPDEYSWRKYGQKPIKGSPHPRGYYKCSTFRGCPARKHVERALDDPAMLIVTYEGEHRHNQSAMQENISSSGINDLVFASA
Strand | relative absorbance
AAAAAACTAGGTATCGGTAGGCGCCGAAAA | 15.6 % of maximum
AAAAAAAAGAGCCTGGGGGTTCGCATAAAA | 17.6 % of maximum
AAAAAATTTGTACTTTAAGTTTACATAAAA | 14.4 % of maximum
AAAAAATTAGTCCTGATTCAATCTTCAAAA | 19.6 % of maximum
AAAAAACTTGCTCCTCCGTTTTACTCAAAA | 16.7 % of maximum
AAAAAACGCTCCGTTTTTGCAATGCGAAAA | 16.1 % of maximum
AAAAAATTTGTTCGGGCTCATAACTGAAAA | 14.1 % of maximum
AAAAAACCAACTCTCTTTCGGACTATAAAA | 16.1 % of maximum
AAAAAAGAAATACCAGAAACTATCATAAAA | 15.8 % of maximum
AAAAAATAGGCGTTATGGCTAACACCAAAA | 17.6 % of maximum
AAAAAATATCGGGCACGGTCTTGTCTAAAA | 15.8 % of maximum
AAAAAAAGGTTTGGGCTTCACGTTATAAAA | 18.4 % of maximum
AAAAAACTCGCGCTTGCATCTGTGCGAAAA | 14.7 % of maximum

Set 2 — technique: protein binding microarray; form: double-stranded DNA, one strand shown; sample: in vitro; concentration: not given; relative to: not given; direction: higher = stronger binding
Target: Histone acetyltransferase KAT6A, winged helix 1, GST fusion (KAT6A, Homo sapiens, UniProt Q92794, residues 1-85)
Notes: 8-mer, flanks averaged, mean of 2 arrays, mostly near background
Construct (chain): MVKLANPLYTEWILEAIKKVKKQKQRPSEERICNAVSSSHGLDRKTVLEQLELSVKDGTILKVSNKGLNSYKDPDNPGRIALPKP
Strand | E-score
AGCCATAC | -0.0764
GCAAACCC | 0.103
GGGGTTAA | -0.0516
TGCGAGAA | -0.202
CTGCGACA | 0.153
ATGCAGGA | -0.34
TAAGTTAA | -0.226
ATCGACGG | 0.325
GCAATGCA | -0.0634
TATTTGAA | -0.141
ACCTCCTC | -0.114
GAACCATA | -0.208
CCGTGATC | 0.258
CCTCGAAG | -0.109
GTACTCAA | -0.135
AGCAGTTG | 0.00662
AATGCTCA | -0.265
GCGAGACC | 0.0546
ATCTCGAA | -0.0153
CGGTCGGC | 0.431
GATTTCGC | 0.0734
AATCTTTC | -0.125
AGTCCGTC | 0.205

Set 3 — technique: protein-binding microarray; form: double-stranded DNA, one strand shown; sample: in vitro; concentration: not given; direction: higher = stronger binding
Target: Hepatocyte nuclear factor 3-beta, forkhead domain (FOXA2, Homo sapiens, UniProt Q9Y261, residues 142-269)
Notes: k-mer, scored over probes, only values ≥0.25
Construct (chain): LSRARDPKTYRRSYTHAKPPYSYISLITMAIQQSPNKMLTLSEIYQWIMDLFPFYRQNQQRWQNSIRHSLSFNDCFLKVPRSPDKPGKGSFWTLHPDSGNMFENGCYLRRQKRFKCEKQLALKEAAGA
Strand | E-score
TACAATAA | 0.288
CAAATATA | 0.352
GTAGTAAA | 0.307
AATATTGT | 0.33
ACAAGCAA | 0.264
AACAATGC | 0.266
CAATAACA | 0.343
ATATTAAC | 0.293
ATTACAAC | 0.342
AATATACA | 0.421
CAAGTATA | 0.288
ATTTACAA | 0.33
ATTACATA | 0.383
AAATAAAC | 0.346
ATATATAG | 0.352

Set 4 — technique: DHFR PCA, dose-response; sample: yeast; notes: Hill fit, mean, not affinity; together with: (+)-ABA, dose series; direction: lower = more sensitive
Target: ABI1, truncated, D143A, DHFR fusion (Arabidopsis thaliana, UniProt P49597)
Starting sequence: PYL1, truncated, DHFR fusion (Arabidopsis thaliana, UniProt Q8VZS8); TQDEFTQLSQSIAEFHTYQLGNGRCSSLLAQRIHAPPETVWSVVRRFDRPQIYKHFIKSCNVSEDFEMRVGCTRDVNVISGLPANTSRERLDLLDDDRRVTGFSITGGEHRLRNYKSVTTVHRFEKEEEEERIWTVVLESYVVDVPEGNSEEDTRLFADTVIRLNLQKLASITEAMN
Change | ABA EC50
R98K | 2.81 µM
E67G | 6.37 µM
Q19A | 3.52 µM
R155A | 29.5 µM
V62I | 3.44 µM
R46T | 10.2 µM
S27K | 84.2 µM
R49S | 2.73 µM
L138R | 918 µM
R46V | 53.4 µM
R24T | 1.95 µM
E14P | 123 µM
R24F | 30.3 µM
Q10I | 12.3 µM
C60S | 34.2 µM
V44R | 200 µM
L94T | 187 µM
D95S | 36.2 µM
R32I | 3.51 µM
E151F | 3.39 µM
T119A | 204 µM
E151W | 11.1 µM
E128F | 3.13 µM
D144A | 48.2 µM

Set 5 — technique: RNA Bind-n-Seq; form: RNA; sample: in vitro; concentration: 1 µM; notes: whole 134-nt RNA, ends assumed; together with: 150 mM KCl; relative to: input library; direction: higher = stronger binding
Target: Ras GTPase-activating protein-binding protein 1, RRM domain (G3BP1, Homo sapiens, UniProt Q13283)
Sequence of UniProt Q13283 (whole entry, looked up): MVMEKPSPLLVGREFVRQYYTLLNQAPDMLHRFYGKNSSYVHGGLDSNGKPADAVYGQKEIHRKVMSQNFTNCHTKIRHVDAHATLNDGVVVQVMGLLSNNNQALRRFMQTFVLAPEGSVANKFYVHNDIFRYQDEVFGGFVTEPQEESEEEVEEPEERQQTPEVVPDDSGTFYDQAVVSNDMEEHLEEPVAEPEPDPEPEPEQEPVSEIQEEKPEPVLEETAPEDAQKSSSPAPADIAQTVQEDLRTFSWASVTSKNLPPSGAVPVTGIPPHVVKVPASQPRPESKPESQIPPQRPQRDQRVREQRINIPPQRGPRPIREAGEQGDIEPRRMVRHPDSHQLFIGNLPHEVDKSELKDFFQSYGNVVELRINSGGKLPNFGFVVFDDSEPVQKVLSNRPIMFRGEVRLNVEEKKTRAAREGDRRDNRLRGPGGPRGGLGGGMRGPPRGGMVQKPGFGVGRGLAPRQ
Strand | log2 enrichment
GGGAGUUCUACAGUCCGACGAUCUGGGAGGUGGAUUUUGUUUAUUUUUUUAGCUCAUUUCCAGGGGUGGGAAUUUUUUUUUAAUAUGUGUCACGAAUAAAGUUGUUUUUGAAAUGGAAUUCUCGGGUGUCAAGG | 1.89
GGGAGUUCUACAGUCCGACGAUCAAGUCCUGUGCUACACAUCGUAUGUACCGAAUCGGUUUUGGGUUUUGGGUUUUGGGGAAAGUAUUAUGUUACGCCGUUCGGAUCUGCACUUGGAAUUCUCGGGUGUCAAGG | -0.0571
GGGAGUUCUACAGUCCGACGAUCGCAGGAAGUAAAAACAAAUGGAAAUGCUUCGGAUAGUGGCAGGGGUGGGGGUUGCUAAGGAAAGGGUGGGAUGGGAGUGGGUAAAAAAUUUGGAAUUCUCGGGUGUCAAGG | 1.17
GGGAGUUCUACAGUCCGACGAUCCAAGUCCUGUGCUACACAUCGUAUGUACCGAAUCGGAAAAGGAAAAGGAAAAGGGAAAGUAUUAUGUUACGCCGUUCGGAUCUGCACUUCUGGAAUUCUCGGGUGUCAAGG | -0.205
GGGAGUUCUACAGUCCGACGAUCGUCCUGUGCUACACAUCGUAUGUACCGAAUCGGGGCCCCCGGGCCCCCGGCCCCCGGGAAAGUAUUAUGUUACGCCGUUCGGAUCUGCACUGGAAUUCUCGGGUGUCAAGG | -0.436
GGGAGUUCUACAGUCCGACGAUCAGUCCUGUGCUACACAUCGUAUGUACCGAAUCGGCCCCCGGCCCCCGGGGCCCCCGGAAAGUAUUAUGUUACGCCGUUCGGAUCUGCACUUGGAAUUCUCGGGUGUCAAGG | -0.426
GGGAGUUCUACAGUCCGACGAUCUCAAGUCCUGUGCUACACAUCGUAUGUACCGAAUCGGGCCCGGGGCCCGGCCCGGAAAGUAUUAUGUUACGCCGUUCGGAUCUGCACUUCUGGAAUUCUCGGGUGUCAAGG | -0.539
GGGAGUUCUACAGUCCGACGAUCGAAACUACCCGUGUGUAAAAAGAAGAUUGGCUUAAAAUGGCUACUGUGAUGGGAACAGUGUCUUAGGGAGAUGCAGCUUGGACUUGAGGUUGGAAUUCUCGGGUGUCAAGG | -0.00836
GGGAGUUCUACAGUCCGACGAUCACCAUGCAGGUGGGCAUCUUUGGGAAGUGGGGCAAGGGGGGGAUAGGGAGGGGGGUAACACUUUGGGAACAGGUGGUGCCAGGUCGUUUCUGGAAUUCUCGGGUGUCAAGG | 0.98
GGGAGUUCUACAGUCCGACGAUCGCAGGAAGUAAAAACAAAUGGAAAUGCUUCGGAUAGUGGCAGGGGUGGGGGUUGCUCAGGAAAGGGUGGGAUGGGAGUGGGUAAAGAGUUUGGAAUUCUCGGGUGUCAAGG | 0.743
